Measurements from different studies.
Parts stem from different laboratories: compare values within a part only.
Sequence of UniProt Q8RYC6 (whole entry, looked up): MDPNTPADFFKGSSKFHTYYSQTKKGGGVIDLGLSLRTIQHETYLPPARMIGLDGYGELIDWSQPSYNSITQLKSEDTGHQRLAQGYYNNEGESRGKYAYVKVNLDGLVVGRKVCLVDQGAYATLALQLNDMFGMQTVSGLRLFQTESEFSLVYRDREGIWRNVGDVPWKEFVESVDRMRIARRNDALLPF
Sequence of UniProt P46734 (whole entry, looked up): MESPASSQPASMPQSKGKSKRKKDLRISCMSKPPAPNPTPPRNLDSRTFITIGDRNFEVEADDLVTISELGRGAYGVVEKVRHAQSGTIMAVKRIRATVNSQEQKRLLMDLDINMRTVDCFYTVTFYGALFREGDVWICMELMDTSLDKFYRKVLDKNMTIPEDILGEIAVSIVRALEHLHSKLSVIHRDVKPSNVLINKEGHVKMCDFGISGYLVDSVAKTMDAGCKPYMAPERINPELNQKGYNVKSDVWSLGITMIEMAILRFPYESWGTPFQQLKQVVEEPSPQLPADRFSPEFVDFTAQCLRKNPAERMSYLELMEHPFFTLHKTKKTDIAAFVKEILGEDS
Sequence of UniProt Q9M1R4 (whole entry, looked up): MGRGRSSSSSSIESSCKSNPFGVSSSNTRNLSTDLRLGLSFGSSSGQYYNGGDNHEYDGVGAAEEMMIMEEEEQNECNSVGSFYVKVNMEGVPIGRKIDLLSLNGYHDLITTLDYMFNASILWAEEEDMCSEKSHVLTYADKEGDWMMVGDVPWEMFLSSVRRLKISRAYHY
Sequence of UniProt Q8L7G0 (whole entry, looked up): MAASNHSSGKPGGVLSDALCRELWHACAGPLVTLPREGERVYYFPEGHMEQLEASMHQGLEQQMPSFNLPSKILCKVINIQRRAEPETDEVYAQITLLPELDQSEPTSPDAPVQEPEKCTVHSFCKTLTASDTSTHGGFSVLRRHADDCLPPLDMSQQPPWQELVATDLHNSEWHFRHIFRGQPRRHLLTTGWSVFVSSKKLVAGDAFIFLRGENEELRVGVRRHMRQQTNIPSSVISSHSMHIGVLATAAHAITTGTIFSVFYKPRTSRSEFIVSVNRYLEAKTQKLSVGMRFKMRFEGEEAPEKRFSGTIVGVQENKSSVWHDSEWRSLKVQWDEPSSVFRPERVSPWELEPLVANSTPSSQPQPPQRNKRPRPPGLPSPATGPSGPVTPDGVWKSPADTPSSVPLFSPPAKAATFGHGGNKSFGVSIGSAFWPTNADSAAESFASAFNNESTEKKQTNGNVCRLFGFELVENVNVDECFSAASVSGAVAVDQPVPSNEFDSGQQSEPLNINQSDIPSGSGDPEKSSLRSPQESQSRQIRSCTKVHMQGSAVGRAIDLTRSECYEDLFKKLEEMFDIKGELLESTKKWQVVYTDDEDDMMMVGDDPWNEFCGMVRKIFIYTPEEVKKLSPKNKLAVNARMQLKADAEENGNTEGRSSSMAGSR
Sequence of UniProt Q8N4C8 (whole entry, looked up): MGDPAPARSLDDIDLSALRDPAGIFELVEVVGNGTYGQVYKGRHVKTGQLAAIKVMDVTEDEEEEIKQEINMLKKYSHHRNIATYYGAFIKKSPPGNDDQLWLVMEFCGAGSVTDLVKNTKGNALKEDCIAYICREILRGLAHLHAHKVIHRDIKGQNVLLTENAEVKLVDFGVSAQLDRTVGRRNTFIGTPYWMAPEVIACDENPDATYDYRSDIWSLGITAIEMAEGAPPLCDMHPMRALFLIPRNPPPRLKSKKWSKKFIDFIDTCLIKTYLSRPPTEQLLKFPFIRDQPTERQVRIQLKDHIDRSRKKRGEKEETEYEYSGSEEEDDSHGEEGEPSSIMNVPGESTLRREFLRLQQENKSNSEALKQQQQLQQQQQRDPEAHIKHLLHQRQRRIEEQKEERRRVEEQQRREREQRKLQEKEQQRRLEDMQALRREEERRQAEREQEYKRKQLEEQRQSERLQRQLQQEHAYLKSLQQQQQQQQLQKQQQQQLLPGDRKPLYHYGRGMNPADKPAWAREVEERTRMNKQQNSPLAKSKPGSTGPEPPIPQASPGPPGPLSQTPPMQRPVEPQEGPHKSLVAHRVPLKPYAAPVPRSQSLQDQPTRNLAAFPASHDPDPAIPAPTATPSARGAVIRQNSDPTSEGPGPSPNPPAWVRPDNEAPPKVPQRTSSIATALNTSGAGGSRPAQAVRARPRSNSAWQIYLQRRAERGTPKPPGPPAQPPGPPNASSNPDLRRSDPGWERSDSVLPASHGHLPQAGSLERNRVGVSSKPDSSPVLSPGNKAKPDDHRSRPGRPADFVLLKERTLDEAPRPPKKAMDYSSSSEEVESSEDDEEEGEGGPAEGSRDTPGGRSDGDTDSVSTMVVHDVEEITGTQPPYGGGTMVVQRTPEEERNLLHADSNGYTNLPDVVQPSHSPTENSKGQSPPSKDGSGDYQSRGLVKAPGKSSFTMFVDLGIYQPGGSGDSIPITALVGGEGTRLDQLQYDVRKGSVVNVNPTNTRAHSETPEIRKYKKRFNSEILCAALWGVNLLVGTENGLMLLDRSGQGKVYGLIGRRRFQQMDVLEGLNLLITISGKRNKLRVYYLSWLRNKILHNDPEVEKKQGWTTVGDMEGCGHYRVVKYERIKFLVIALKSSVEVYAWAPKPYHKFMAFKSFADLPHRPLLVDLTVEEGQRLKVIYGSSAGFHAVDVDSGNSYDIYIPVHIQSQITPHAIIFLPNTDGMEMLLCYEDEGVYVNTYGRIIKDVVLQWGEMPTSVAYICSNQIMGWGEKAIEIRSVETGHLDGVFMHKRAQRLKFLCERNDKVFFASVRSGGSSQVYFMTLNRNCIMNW
Sequence of UniProt Q9ZTX9 (whole entry, looked up): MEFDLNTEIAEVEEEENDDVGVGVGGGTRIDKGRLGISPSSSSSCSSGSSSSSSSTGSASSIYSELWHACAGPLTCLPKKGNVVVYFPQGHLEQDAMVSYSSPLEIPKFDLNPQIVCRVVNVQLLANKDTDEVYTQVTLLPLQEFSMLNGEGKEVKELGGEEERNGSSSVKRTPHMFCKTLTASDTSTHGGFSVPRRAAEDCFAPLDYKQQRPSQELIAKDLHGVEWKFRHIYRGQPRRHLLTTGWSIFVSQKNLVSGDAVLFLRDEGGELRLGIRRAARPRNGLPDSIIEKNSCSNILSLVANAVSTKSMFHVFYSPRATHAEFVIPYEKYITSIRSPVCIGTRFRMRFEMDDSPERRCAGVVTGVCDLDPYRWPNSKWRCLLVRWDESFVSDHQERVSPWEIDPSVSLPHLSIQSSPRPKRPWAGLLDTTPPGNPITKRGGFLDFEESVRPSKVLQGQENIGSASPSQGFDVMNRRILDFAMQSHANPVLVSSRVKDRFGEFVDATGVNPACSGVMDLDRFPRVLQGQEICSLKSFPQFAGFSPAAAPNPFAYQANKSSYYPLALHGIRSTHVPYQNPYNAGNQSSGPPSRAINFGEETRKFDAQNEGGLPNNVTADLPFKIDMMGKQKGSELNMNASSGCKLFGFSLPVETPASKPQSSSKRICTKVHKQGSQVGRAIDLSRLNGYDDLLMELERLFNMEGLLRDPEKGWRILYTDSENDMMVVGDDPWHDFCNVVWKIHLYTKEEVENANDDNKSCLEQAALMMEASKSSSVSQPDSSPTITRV
Sequence of UniProt Q9C5W9 (whole entry, looked up): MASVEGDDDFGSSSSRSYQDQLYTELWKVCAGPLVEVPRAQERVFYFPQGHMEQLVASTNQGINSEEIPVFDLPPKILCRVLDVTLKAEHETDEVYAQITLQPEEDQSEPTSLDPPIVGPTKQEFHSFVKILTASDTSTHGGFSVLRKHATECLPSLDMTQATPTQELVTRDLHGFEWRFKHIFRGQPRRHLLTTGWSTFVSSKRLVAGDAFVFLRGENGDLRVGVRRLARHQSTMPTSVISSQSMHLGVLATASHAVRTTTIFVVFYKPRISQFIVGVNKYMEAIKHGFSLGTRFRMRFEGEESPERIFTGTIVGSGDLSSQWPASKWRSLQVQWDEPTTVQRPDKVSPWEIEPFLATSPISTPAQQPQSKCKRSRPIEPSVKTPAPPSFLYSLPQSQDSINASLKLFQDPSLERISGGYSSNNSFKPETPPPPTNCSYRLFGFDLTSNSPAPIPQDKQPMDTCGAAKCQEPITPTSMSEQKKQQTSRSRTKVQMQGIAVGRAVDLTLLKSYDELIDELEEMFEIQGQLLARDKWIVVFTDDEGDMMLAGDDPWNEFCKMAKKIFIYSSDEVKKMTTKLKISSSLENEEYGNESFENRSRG
Sequence of UniProt Q16816 (whole entry, looked up): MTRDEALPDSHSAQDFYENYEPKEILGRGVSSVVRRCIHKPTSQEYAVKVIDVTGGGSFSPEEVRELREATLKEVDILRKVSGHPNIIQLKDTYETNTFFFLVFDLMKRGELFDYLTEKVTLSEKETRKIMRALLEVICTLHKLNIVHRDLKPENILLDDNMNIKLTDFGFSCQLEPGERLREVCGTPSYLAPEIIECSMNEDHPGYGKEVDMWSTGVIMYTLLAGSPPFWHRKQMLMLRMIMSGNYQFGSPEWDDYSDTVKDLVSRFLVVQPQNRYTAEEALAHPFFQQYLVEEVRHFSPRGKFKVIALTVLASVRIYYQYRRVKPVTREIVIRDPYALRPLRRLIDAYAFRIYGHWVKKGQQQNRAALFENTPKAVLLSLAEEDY

Sample 1
Target: MAP kinase-interacting serine/threonine-protein kinase 1 (MKNK1, Homo sapiens, UniProt Q9BUB5)
Sequence of UniProt Q9BUB5 (whole entry, looked up): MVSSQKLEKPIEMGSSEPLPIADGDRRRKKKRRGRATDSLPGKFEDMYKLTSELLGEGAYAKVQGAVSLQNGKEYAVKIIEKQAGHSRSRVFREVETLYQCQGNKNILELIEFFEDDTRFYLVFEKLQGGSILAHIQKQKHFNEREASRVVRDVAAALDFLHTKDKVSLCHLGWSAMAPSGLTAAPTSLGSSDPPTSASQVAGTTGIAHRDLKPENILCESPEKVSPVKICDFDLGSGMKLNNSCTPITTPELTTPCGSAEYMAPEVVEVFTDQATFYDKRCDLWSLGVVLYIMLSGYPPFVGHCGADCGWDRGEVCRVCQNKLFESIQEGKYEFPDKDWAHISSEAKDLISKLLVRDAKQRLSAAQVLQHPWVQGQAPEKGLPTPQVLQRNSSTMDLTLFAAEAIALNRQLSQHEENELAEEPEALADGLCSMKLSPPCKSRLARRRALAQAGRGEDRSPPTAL
Effect on: enzyme activity
Action: inhibitor
Tested at: 0.5 µM
Reference: control
Quantity: remaining activity
Cn1sc(=O)n(Cc2ccccc2)c1=O: 98.6%
O=C1NC(=O)C(c2cn(CCCO)c3ncccc23)=C1c1cnccn1: 100%
OCC(O)CCON=C1C(c2c(O)[nH]c3ccccc23)=Nc2ccccc21 (stereo not shown): 95.3%
CCOC(=O)c1c(C)[nH]c(/C=C2\C(=O)Nc3ccccc32)c1C: 112%
CC(C)[C@H](CO)Nc1nc(Nc2cc(N)cc(Cl)c2)c2ncn(C(C)C)c2n1: 99.1%
C#Cc1cccc(Nc2ncnc3cc(OCCOC)c(OCCOC)cc23)c1: 58.2%
COc1ccc(C(=O)Nc2sc3c(c2C(N)=O)CCCC3)cc1OC: 98.2%
O=C(CCCc1ccc(-c2ccccc2F)cc1)Nc1ccc(O)cc1: 111%
Cc1ccc(NC(=O)c2ccc(CN3CCN(C)CC3)cc2)cc1Nc1nc(-c2cccnc2)cs1: 90%
O=S(=O)(c1cccc2cnccc12)N1CCCNCC1: 91.8%
Nc1ccc2ncnc(NCCc3ccc(Oc4ccccc4)cc3)c2c1: 106%
Cc1cccc(-c2[nH]c(C(C)(C)C)nc2-c2ccc3c(c2)OCO3)n1: 86.8%
COc1cc2nccc(Oc3ccc(NC(=S)NC(=O)c4ccccc4C)cc3)c2cc1OC: 93.2%
COc1cc2ncnc(Nc3ccc(Oc4ccccc4)cc3)c2cc1OC: 98.9%

Sample 2
Sequence: B1 (IAA19)
Technique: two-hybrid
Reading: higher = firmer interaction
Quantity: positive tests
B1: IAA19 (Arabidopsis thaliana, UniProt O24409); chain MEKEGLGLEITELRLGLPGRDVAEKMMKKRAFTEMNMTSSGSNSDQCESGVVSSGGDAEKVNDSPAAKSQVVGWPPVCSYRKKNSCKEASTTKVGLGYVKVSMDGVPYLRKMDLGSSQGYDDLAFALDKLFGFRGIGVALKDGDNCEYVTIYEDKDGDWMLAGDVPWGMFLESCKRLRIMKRSDATGFGLQPRGVDE
IAA34 (Arabidopsis thaliana, UniProt Q9C5X0); reference: out of 4 tests: 4
IAA32 (Arabidopsis thaliana, UniProt Q8RYC6); reference: out of 4 tests: 0
IAA30 (Arabidopsis thaliana, UniProt Q9M1R4); weak activation fusion; reference: out of 2 tests: 0
IAA20 (Arabidopsis thaliana, UniProt O24410); weak activation fusion; reference: out of 4 tests: 1
IAA31 (Arabidopsis thaliana, UniProt Q8H174); reference: out of 4 tests: 4
ARF18 482-602 (Arabidopsis thaliana, UniProt Q9C5W9); reference: out of 2 tests: 0
ARF1 538-665 (Arabidopsis thaliana, UniProt Q8L7G0); reference: out of 2 tests: 0
ARF4 660-788 (Arabidopsis thaliana, UniProt Q9ZTX9); reference: out of 4 tests: 1

Sample 3
Target: Histone acetyltransferase KAT6A, winged helix 2, GST fusion (KAT6A, Homo sapiens, UniProt Q92794, residues 85-181)
Technique: protein binding microarray
Molecule type: double-stranded DNA, one strand shown
Medium: in vitro
Tested at: not given
Notes: 8-mer, flanks averaged, mean of 2 arrays, mostly near background
Reference: not given
Reading: higher = stronger binding
Quantity: E-score
Residues (chain): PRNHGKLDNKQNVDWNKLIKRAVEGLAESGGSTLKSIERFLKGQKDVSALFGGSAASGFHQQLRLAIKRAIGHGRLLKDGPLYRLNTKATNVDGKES
AAACTAGT: -0.178
ACATGGTG: -0.0537
ACGTGGAC: -0.0943
ACGTAAAC: -0.209
CCGCCCCA: 0.302
CGTGTAAG: 0.0789
AGGGATAC: -0.0697
TCCTTCAA: -0.0803

Sample 4
Compound: Cc1cc(-n2nc(Cc3cc(F)cc(C(F)(F)F)c3)nc2C)ccc1C(N)=O
Effect on: cell-free assay
Technique: competition with immobilised ligand
Tested at: 1 µM
Quantity: remaining binding
Tyrosine-protein kinase ABL1, phosphorylated (ABL1, Homo sapiens, UniProt P00519, T315I): 98%
Interleukin-1 receptor-associated kinase 4 (IRAK4, Homo sapiens, UniProt Q9NWZ3): 100%
5'-AMP-activated protein kinase catalytic subunit alpha-2 (PRKAA2, Homo sapiens, UniProt P54646): 100%
Mitogen-activated protein kinase 9 (MAPK9, Homo sapiens, UniProt P45984): 81%
Dual specificity mitogen-activated protein kinase kinase 5 (MAP2K5, Homo sapiens, UniProt Q13163): 100%
3-phosphoinositide-dependent protein kinase 1 (PDPK1, Homo sapiens, UniProt O15530): 100%
Ribosomal protein S6 kinase alpha-1, C-terminal kinase domain (RPS6KA1, Homo sapiens, UniProt Q15418): 100%
Serine/threonine-protein kinase 26 (STK26, Homo sapiens, UniProt Q9P289): 100%
Serine/threonine-protein kinase ULK3 (ULK3, Homo sapiens, UniProt Q6PHR2): 100%
Serine/threonine-protein kinase Nek1 (NEK1, Homo sapiens, UniProt Q96PY6): 54%
G protein-coupled receptor kinase 3 (GRK3, Homo sapiens, UniProt P35626): 100%
Calcium/calmodulin-dependent protein kinase kinase 1 (CAMKK1, Homo sapiens, UniProt Q8N5S9): 100%
Protein kinase C eta type (PRKCH, Homo sapiens, UniProt P24723): 97%
Hormonally up-regulated neu tumor-associated kinase (HUNK, Homo sapiens, UniProt P57058): 89%
Ephrin type-A receptor 3 (EPHA3, Homo sapiens, UniProt P29320): 94%
Ephrin type-B receptor 4 (EPHB4, Homo sapiens, UniProt P54760): 100%
Rhodopsin kinase GRK7 (GRK7, Homo sapiens, UniProt Q8WTQ7): 100%
Receptor tyrosine-protein kinase erbB-2 (ERBB2, Homo sapiens, UniProt P04626): 99%
Phosphorylase b kinase gamma catalytic chain, skeletal muscle/heart isoform (PHKG1, Homo sapiens, UniProt Q16816): 98%
Dual specificity mitogen-activated protein kinase kinase 3 (MAP2K3, Homo sapiens, UniProt P46734): 100%
Tyrosine-protein kinase BTK (BTK, Homo sapiens, UniProt Q06187): 100%
G protein-coupled receptor kinase 4 (GRK4, Homo sapiens, UniProt P32298): 100%
Serine/threonine-protein kinase mTOR (MTOR, Homo sapiens, UniProt P42345): 78%
Misshapen-like kinase 1 (MINK1, Homo sapiens, UniProt Q8N4C8): 93%
Peripheral plasma membrane protein CASK (CASK, Homo sapiens, UniProt O14936): 100%

Repeated from above (sample 1):
O=C1NC(=O)C(c2cn(CCCO)c3ncccc23)=C1c1cnccn1: 100%
OCC(O)CCON=C1C(c2c(O)[nH]c3ccccc23)=Nc2ccccc21 (stereo not shown): 95.3%
CCOC(=O)c1c(C)[nH]c(/C=C2\C(=O)Nc3ccccc32)c1C: 112%
CC(C)[C@H](CO)Nc1nc(Nc2cc(N)cc(Cl)c2)c2ncn(C(C)C)c2n1: 99.1%
C#Cc1cccc(Nc2ncnc3cc(OCCOC)c(OCCOC)cc23)c1: 58.2%
COc1ccc(C(=O)Nc2sc3c(c2C(N)=O)CCCC3)cc1OC: 98.2%
